Experimental data of several laboratories.
Every numbered part comes from another study and shows a few of its results, in no order.

Set 1
Target: Prothrombin, mature alpha-thrombin (F2, Homo sapiens, UniProt P00734)
Method: aptamer microarray, sandwich
Molecule type: DNA with 2'F-ANA
Medium: in vitro
Tested at: 200 nM
Notes: whole 15-mer aptamer, many near background
With: Cy3 exosite-II aptamer, 400 nM
Direction: higher = stronger binding
Measurement: mean fluorescence intensity
Oligonucleotide: GGTTGGTGTGGTTGG
Modification = 2'F-ANA at 4 11 13 14; value = 83.2 a.u.
Modification = 2'F-ANA at 1 3 4 5 6 8 9 10 15; value = 47.7 a.u.
Modification = 2'F-ANA at 10 12; value = 240 a.u.
Modification = 2'F-ANA at 2 3 4 9 11 12 13 14; value = 266 a.u.
Modification = 2'F-ANA at 7 8 9 10 13 14 15; value = 122 a.u.

Set 2
Target: Centromere-binding protein 1, full length, His-tagged (CBF1, Saccharomyces cerevisiae, UniProt P17106, residues 1-351)
Chain of UniProt P17106 (whole entry, looked up): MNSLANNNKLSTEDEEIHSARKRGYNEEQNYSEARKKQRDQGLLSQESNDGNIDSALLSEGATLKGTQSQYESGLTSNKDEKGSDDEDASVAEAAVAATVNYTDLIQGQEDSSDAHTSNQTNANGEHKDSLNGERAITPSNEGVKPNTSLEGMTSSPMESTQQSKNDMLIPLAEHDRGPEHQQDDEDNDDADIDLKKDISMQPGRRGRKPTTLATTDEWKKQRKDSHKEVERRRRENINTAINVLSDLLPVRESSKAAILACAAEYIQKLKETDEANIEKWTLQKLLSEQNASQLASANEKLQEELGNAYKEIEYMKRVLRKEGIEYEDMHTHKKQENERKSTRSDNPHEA
Method: competition protein-binding microarray
Molecule type: double-stranded DNA, one strand shown
Medium: in vitro
Tested at: 2 µM
Notes: whole 60-bp probe, lowest competitor level
With: Pho4 competitor, 0.05 µM
Direction: higher = stronger binding
Measurement: fluorescence intensity
Oligonucleotide = GAAGGTGGTCCAACACACGTGATGGACCTAAACTCGGTCTTGATTCGCTTGACGCTGCTG; value = 2830 a.u.
Oligonucleotide = ATTCTTGGTACTTTAGTCGTGATTGTTTGACATGCCGTCTTGATTCGCTTGACGCTGCTG; value = 103 a.u.
Oligonucleotide = ATACTTTTATCGGCCCATGTGTGCCTAGTCAGCTCGGTCTTGATTCGCTTGACGCTGCTG; value = 133 a.u.
Oligonucleotide = AGAGCCGATACGGCACCCGTGCGATACGAGACAGGAGTCTTGATTCGCTTGACGCTGCTG; value = 65 a.u.

Set 3
Target: Interferon regulatory factor 7, full length, phosphomimetic (IRF7, Homo sapiens, UniProt Q92985, residues 1-503, S471D/S472D/S475D/S476D/S477D/S483D/S484D/S487D)
Method: protein-binding microarray
Molecule type: double-stranded DNA, one strand shown
Medium: in vitro
Tested at: 2200 nM top
Notes: 60-bp whole probe
With: salmon DNA 0.4 mg/ml
Relative to: random background probes
Direction: higher = stronger binding
Measurement: fitted relative affinity
Shared flanks, not repeated: GCCTAGCAC … GTCTTGATTCGCTTGACGCTGCTG
Target sequence (chain): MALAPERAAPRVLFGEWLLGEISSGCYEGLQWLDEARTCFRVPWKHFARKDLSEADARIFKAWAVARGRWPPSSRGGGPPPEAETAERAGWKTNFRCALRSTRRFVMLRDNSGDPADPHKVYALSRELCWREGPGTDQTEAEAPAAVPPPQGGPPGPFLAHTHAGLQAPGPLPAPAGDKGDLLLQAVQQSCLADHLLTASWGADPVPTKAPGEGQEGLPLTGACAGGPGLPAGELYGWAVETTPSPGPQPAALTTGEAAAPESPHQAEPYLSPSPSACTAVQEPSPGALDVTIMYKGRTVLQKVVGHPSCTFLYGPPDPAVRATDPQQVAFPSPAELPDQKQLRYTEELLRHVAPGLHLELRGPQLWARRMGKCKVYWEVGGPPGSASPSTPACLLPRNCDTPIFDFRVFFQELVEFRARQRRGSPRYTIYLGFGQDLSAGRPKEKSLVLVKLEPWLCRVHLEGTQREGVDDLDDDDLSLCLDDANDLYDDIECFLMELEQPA
Oligonucleotide = GCTTTTTTTTTTTTTTTTTTGTGCTAG; value = 1.76 z-score
Oligonucleotide = TTAGGTCTCCTTCTCCTTCAGTGCTAG; value = 1.05 z-score
Oligonucleotide = GACGGTATCGACTTTCGGGATGTGCTA; value = 4.05 z-score
Oligonucleotide = GACTGTATCGACACTGGGGACGTGCTA; value = 0.167 z-score
Oligonucleotide = GACGGTTTCGGTTTCGGGTCGTGCTAG; value = 16.7 z-score
Oligonucleotide = CTAGGTATCGGACTGGGTTAGTGCTAG; value = 0.0344 z-score

Further values, each from its own experiment
Molecule = PhoQ, residues 284 288 289 292 302 303 SSYNSA; target = PhoP, residues 12 14 15 18 19 SPWRL (Escherichia coli, UniProt P23836); test = Sort-seq, refers to: YFP reporter; test system = E. coli; setting = PhoQ-PhoP variant library, with: 10 µM Mg2+; scale = relative to: high Mg2+ state, higher = stronger signaling; measurement = fold induction; value = 0.892

Some of these lines once more (set 2):
Oligonucleotide = ATACTTTTATCGGCCCATGTGTGCCTAGTCAGCTCGGTCTTGATTCGCTTGACGCTGCTG; value = 133 a.u.
